Assay results of several laboratories.
Numbered parts are unrelated; each lists some results of a single study.
Sequence of UniProt Q8WTQ7 (whole entry, looked up): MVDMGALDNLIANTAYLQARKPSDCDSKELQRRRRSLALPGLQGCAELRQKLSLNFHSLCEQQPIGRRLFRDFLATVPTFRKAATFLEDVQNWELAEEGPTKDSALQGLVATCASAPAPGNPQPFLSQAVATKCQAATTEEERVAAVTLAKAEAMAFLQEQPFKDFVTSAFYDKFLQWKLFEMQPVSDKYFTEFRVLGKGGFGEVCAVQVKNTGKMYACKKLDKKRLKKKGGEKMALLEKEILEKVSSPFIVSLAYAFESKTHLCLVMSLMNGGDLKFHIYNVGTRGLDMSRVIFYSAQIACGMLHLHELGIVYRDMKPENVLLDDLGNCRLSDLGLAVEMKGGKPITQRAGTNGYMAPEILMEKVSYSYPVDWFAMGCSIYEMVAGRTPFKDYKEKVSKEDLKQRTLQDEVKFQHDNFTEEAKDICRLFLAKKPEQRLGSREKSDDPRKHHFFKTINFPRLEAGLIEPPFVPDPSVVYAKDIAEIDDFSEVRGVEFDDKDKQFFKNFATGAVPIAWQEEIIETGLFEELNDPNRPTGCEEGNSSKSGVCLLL
Sequence of UniProt Q15349 (whole entry, looked up): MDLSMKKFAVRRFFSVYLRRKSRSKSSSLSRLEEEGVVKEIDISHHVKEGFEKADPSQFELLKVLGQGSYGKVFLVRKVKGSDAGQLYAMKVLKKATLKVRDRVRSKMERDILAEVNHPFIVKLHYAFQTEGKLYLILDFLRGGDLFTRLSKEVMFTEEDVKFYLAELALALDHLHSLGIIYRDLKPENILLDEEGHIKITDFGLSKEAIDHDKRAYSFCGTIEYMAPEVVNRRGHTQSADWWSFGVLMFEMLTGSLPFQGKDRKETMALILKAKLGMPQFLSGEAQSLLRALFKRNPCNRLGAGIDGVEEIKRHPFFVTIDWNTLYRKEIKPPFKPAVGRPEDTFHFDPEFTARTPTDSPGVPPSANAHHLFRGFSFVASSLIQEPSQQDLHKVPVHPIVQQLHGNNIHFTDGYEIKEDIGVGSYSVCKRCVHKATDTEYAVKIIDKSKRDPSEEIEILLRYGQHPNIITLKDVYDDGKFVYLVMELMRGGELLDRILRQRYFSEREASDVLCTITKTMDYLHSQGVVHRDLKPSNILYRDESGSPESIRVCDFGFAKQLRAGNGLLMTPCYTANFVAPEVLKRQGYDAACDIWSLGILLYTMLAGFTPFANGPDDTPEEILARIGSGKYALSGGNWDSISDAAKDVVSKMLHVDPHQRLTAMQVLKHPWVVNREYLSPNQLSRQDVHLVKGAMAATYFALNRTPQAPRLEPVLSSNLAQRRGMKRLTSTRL
Sequence of UniProt Q8IYT8 (whole entry, looked up): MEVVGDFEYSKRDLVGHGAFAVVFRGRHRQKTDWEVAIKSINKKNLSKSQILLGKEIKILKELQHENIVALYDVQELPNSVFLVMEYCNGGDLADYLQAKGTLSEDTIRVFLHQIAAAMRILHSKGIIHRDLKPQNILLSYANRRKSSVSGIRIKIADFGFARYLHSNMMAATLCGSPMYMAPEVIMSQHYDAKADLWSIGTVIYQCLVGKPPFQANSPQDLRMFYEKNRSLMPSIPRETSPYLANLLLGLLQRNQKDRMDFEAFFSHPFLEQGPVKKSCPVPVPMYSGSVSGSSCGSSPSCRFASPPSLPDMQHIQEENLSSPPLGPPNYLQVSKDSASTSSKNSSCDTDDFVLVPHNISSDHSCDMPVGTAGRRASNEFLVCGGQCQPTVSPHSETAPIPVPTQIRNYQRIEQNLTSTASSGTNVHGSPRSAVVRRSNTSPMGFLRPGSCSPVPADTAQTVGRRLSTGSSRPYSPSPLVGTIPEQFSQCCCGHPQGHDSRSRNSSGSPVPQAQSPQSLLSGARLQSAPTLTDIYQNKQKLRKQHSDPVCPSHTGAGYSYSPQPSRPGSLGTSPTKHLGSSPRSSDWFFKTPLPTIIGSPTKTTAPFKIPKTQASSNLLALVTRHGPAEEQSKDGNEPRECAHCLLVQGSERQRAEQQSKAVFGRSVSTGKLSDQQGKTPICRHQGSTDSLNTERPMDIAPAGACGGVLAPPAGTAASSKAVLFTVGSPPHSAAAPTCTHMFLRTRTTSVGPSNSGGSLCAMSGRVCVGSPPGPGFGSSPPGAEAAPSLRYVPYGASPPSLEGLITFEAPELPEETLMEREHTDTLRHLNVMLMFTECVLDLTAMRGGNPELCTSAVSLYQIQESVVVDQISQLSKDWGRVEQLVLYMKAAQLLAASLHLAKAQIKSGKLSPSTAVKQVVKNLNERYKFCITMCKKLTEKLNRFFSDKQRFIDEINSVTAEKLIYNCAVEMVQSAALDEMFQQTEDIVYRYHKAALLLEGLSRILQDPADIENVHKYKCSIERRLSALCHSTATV
Sequence of UniProt P49137 (whole entry, looked up): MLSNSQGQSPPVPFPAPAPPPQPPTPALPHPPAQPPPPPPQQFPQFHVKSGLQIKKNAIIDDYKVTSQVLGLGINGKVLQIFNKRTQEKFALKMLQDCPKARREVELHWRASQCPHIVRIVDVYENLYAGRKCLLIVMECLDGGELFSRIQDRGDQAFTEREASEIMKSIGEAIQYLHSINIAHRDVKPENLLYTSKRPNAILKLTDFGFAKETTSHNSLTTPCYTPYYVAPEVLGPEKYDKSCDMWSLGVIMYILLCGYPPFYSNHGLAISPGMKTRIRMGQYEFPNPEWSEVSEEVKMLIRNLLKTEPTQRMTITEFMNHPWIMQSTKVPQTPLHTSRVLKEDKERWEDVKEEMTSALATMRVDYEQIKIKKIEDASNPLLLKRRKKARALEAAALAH
Sequence of UniProt Q15761 (whole entry, looked up): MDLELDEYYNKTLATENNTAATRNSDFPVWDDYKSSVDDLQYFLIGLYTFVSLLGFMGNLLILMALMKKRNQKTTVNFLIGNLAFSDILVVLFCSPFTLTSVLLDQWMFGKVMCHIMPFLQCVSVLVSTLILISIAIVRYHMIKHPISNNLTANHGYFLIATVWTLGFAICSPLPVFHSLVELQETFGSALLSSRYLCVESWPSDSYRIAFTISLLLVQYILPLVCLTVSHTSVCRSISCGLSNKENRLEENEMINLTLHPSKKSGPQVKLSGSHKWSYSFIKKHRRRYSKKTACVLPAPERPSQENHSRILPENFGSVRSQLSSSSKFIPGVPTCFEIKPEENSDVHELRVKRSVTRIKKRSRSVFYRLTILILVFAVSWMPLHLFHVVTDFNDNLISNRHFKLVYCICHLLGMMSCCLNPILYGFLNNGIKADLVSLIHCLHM
Sequence of UniProt Q96PY6 (whole entry, looked up): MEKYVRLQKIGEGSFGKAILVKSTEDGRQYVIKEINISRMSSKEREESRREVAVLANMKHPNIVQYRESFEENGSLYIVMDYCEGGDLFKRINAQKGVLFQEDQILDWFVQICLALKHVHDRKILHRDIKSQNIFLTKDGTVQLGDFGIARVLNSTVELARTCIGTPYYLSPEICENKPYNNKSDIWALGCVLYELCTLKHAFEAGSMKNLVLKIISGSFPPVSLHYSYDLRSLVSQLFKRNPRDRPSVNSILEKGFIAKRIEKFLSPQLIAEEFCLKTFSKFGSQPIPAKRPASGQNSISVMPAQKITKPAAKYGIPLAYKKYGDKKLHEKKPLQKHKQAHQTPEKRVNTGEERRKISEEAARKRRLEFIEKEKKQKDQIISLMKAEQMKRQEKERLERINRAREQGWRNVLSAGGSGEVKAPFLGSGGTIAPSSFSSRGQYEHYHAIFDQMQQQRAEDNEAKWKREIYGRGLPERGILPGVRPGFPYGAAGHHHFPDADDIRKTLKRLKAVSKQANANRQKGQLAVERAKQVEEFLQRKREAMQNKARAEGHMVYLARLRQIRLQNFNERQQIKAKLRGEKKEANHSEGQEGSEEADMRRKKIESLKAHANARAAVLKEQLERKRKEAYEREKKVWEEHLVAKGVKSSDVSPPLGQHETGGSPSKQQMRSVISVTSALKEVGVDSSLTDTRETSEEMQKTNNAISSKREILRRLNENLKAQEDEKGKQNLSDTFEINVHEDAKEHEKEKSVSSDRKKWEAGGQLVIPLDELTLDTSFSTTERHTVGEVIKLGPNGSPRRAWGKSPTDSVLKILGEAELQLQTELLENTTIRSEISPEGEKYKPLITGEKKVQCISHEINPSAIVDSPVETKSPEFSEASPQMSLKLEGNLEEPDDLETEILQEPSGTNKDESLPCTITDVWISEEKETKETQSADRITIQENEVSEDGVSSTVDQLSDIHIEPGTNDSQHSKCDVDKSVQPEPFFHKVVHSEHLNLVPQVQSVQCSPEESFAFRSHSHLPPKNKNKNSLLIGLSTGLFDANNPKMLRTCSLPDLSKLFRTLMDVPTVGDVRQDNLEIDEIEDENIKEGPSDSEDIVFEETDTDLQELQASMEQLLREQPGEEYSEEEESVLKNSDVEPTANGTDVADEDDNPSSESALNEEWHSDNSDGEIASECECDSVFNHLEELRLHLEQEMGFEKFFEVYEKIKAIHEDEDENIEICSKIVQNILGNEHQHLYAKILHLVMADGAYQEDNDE
Sequence of UniProt P49238 (whole entry, looked up): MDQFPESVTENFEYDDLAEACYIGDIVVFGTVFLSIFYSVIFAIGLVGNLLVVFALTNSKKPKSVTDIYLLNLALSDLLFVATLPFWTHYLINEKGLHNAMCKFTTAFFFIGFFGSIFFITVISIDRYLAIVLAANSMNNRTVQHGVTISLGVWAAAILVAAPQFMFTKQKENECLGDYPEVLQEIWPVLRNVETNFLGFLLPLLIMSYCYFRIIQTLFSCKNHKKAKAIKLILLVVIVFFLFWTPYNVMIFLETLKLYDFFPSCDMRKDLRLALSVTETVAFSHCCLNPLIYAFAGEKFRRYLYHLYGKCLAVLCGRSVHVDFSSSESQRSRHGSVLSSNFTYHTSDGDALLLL

Set 1
SMILES: NC(N)=NC(=O)c1nc(Cl)c(N2CCCCCC2)nc1N
Effect on: β-arrestin recruitment
Mode: agonist
Method: PRESTO-Tango
Tested at: 10 µM
Relative to: untreated
target | fold over basal
GRM8 (Homo sapiens, UniProt O00222) | 0.82 fold
P2Y purinoceptor 4 (P2RY4, Homo sapiens, UniProt P51582) | 0.9
CX3CR1 (Homo sapiens, UniProt P49238) | 0.57
C-C chemokine receptor type 2, isoform B (CCR2, Homo sapiens, UniProt P41597) | 0.62
CXCR4 (Homo sapiens, UniProt P61073) | 0.66
NPY5R (Homo sapiens, UniProt Q15761) | 0.71
UTS2R (Homo sapiens, UniProt Q9UKP6) | 0.7 fold
DRD3 (Homo sapiens, UniProt P35462) | 3.27

Set 2
Structure (SMILES): CCC(=O)Nc1ccc2ncnc(Nc3cccc(Br)c3)c2c1
Effect on: enzyme activity
Mode: inhibitor
Tested at: 0.5 µM
Relative to: control
target | remaining activity
MST1R (Homo sapiens, UniProt Q04912) | 97.2%
ULK2 (Homo sapiens, UniProt Q8IYT8) | 118%
GRK7 (Homo sapiens, UniProt Q8WTQ7) | 105%
MAPK3 (Homo sapiens, UniProt P27361) | 101%
MERTK (Homo sapiens, UniProt Q12866) | 83.9%
CSNK1G3 (Homo sapiens, UniProt Q9Y6M4) | 91.6%
NEK1 (Homo sapiens, UniProt Q96PY6) | 76.9%
MAP3K5 (Homo sapiens, UniProt Q99683) | 102%
NEK6 (Homo sapiens, UniProt Q9HC98) | 105%
TAOK2 (Homo sapiens, UniProt Q9UL54) | 91.4%
MAPKAPK2 (Homo sapiens, UniProt P49137) | 87.1%
TBK1 (Homo sapiens, UniProt Q9UHD2) | 95.6%
RPS6KA2 (Homo sapiens, UniProt Q15349) | 87.2%
ARAF (Homo sapiens, UniProt P10398) | 93.4%
EPHA3 (Homo sapiens, UniProt P29320) | 106%

Set 3
Cell line: mouse MPNST tumor cells
Method: high-content immunofluorescence imaging
Refers to: nuclear SOX9
Tested at: 10 µM
Time: 12 h
Notes: mean of 2 replicates
Relative to: DMSO control
Direction: higher = more nuclear SOX9
SMILES | nuclear SOX9 intensity
C=CCSCC1Nc2cc(Cl)c(S(N)(=O)=O)cc2S(=O)(=O)N1 (centres unmarked) | 101 % of DMSO
O=C(O)CCCc1ccccc1 | 107 % of DMSO
CC(C)NCC(O)COc1ccc(CC(N)=O)cc1 (centres unmarked) | 89.9 % of DMSO
Nc1ccc(/N=N/c2ccccc2)c(N)n1 | 101 % of DMSO

Set 4
SMILES: CN(C)c1ncnc(-c2ccc3nc(Nc4cc(CN5CCN(C(=O)CC(F)(F)F)CC5)ccn4)[nH]c3c2)c1Cl
Effect on: cell-free assay
Method: competition with immobilised ligand
Tested at: 1 µM
target | remaining binding [%]
SNRK (Homo sapiens, UniProt Q9NRH2) | 100
FGFR2 (Homo sapiens, UniProt P21802) | 100
KIT (Homo sapiens, UniProt P10721, D816V) | 97
PIK3C2B (Homo sapiens, UniProt O00750) | 100
PRKCD (Homo sapiens, UniProt Q05655) | 100

Repeated from above (set 2):
target | remaining activity
MAP3K5 (Homo sapiens, UniProt Q99683) | 102%
MST1R (Homo sapiens, UniProt Q04912) | 97.2%
CSNK1G3 (Homo sapiens, UniProt Q9Y6M4) | 91.6%
